# Assay results collected from several papers.
# A part holds a random share of what one study measured. Substitutions count along the parent as printed.

# Sample 1 — method: protein-binding microarray; form: double-stranded DNA, one strand shown; matrix: in vitro; tested at: 250 nM; notes: 60-bp whole probe; with: salmon DNA 0.4 mg/ml; relative to: random background probes; reading: higher = stronger binding; shared flanks, not repeated: GCCTAGCAC … GTCTTGATTCGCTTGACGCTGCTG
# Target: Interferon regulatory factor 7, full length, phosphomimetic (IRF7, Homo sapiens, UniProt Q92985, residues 1-503, S101K/S471D/S472D/S475D/S476D/S477D/S483D/S484D/S487D)
# Target sequence (chain): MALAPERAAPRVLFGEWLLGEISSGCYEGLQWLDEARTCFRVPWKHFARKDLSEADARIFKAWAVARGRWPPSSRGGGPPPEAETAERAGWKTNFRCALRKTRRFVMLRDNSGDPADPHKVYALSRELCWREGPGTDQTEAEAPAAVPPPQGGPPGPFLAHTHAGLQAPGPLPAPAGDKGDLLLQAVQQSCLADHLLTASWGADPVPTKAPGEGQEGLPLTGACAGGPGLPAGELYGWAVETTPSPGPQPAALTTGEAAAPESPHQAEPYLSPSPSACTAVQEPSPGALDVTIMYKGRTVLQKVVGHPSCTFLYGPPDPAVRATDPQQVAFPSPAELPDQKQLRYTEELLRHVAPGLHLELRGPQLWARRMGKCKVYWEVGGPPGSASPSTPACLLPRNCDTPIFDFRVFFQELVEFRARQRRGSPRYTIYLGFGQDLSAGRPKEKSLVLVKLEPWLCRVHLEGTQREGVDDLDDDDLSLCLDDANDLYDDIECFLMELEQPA
Strand,log fluorescence [z-score]
GACGGTTTCAGGACTGGGGACGTGCTA,0.752
TCCCCTCTAGGTCTTCTGAAGTGCTAG,-0.256
TTAGATCTCAGTCTCGATCAGTGCTAG,0.435
CTAGGTTTCGGGTATCGGTTAGTGCTA,8.02
CTAGGTTTCGGTTCCGGTTAGTGCTAG,12.6
GACGGTATCGGGATCGGGACGTGCTAG,0.228
TTTGATCTCAGTATCGATTAGTGCTAG,0.942
TTAGGTTCCGGTTTCGGTTAGTGCTAG,10.9
TCAGCTTTCTTTATGCAACTGTGCTAG,0.261
TTAGATTACGGGACTGGATTAGTGCTA,0.0928
TCAAATTTTCATTTTCCACTGTGCTAG,1.46
TCATTTAGAAATTTCTTACTGTGCTAG,1.63
TTAGGTATCGGGTTTCGATTAGTGCTA,7.3
TTAGGACCGGGTATCGGTTAGTGCTAG,1.7
TCACTTTTCTTTACTGAACTGTGCTAG,1.33
TCATATTTGTTTCCATTACTGTGCTAG,2.04
TCATTTCTAAATTCCCTACTGTGCTAG,1.78
TTAGGGATCGGGTATCGGTTAGTGCTA,1.05
GACGGTTTCCTGTCCCTGACGTGCTAG,1.69

# Sample 2 — method: protein binding microarray; form: double-stranded DNA, one strand shown; matrix: in vitro; tested at: not given; relative to: not given; reading: higher = stronger binding
# Target: Histone acetyltransferase KAT6A, winged helix 1, GST fusion (KAT6A, Homo sapiens, UniProt Q92794, residues 1-85)
# Notes: 8-mer, flanks averaged, mean of 2 arrays, mostly near background
# Target sequence (chain): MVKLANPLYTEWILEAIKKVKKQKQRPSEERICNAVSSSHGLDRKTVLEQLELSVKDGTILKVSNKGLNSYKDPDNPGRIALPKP
Strand,E-score
GTTTAGGA,-0.191
AACTTCCT,-0.0966
CGGATTTC,0.208
AAGCGTAA,0.154
CCCACCCG,0.244
ACTCTTTG,-0.192
ACACAAAT,-0.222
AGTCGGTC,0.082
ACCATATA,-0.125
CCACCCAG,-0.225
CCAACTCG,-0.229
GGGCTCTA,-0.148
ATAGACAA,-0.147
CATTCGCC,0.188
GATCGCAA,0.0355
CCCGCAGC,0.21
TAGGGGCA,-0.231
AGTGACAC,0.0174
GCTCCCGA,0.106
ACGCAATG,0.0513
CACTGGCA,-0.234
CCATGGCA,-0.0569
CCTCCCCG,0.308
ACCGGTCT,0.0176
TCGTACGA,-0.0998

# Sample 3 — method: competition protein-binding microarray; form: double-stranded DNA, one strand shown; matrix: in vitro; tested at: 2 µM; with: Cbf1 competitor, 0.05 µM; reading: higher = stronger binding
# Target: Phosphate system positive regulatory protein PHO4, full length, GST-tagged (PHO4, Saccharomyces cerevisiae, UniProt P07270, residues 1-312)
# Notes: whole 60-bp probe, lowest competitor level
# Construct (chain): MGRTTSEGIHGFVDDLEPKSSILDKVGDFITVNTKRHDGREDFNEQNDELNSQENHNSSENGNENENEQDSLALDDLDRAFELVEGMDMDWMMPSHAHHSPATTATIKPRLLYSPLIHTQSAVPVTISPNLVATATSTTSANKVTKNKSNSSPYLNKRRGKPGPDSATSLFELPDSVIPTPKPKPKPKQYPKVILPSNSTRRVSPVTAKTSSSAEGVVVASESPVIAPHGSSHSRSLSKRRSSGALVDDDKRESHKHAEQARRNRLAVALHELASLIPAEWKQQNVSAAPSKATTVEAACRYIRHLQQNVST
Strand,fluorescence intensity [a.u.]
AGAAGCTAAGACACTGTTCTCTTGACTAAATGAAAGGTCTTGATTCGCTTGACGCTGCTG,3160
TGTTACGTAATAAGCAACGTGCAAACGCATTTTTTGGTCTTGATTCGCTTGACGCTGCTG,13300
AAACTGGGAGAAAGTGACGTGATGGAGGAAATTATGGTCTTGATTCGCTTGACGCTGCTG,4470
CTTTCCCGATCTTTTCACGTGTCTTTAGCACATTTGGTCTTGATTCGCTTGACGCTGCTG,13600
CGGGGTTAAGTTTGATTAGTGGGTGGCTTGCAGCAGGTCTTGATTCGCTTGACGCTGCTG,4600
GAGACGCTTAAGCGACACGTGCCTGGCTTCTGCAGCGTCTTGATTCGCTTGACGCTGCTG,14700
CGTCCTAGTGATTTTCACGTGGGGTCCATGAGGAAGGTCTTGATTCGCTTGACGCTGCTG,15800
GCTTGGCATCCGTCCCACGTTATGTGGAGTGTTGCCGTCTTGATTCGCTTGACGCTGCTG,9040
TGCGCAACAACTTGATAGGTGGGTGTATGTCTAGAAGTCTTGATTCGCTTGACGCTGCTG,4780
GAATAGTTTTCTGTACACGTGGAGGTATAGTTCTCAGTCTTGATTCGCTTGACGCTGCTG,16700
TTAGATTAAGTAGGACGCATGATGTTGAGCTCTTTTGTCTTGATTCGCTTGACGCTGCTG,7080
CATACCCAACCTTTTCACGTGGCCTAAGATATTTGTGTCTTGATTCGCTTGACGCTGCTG,14100
AAAGCGGTAATTTGGAATGTGGGTGCAGATATCTATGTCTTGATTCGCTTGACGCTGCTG,6600
AGCTCTAACAAAGTCAACGTGTAAGGCAGCAACTGGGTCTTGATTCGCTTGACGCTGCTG,9400
AGGAGGGGAATTACCGGCGTGGCCGATATTCCTTATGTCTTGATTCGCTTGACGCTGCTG,6500
TGCGCAACAACTTGTCACAATACTTTATGTCTAGAAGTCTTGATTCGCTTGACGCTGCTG,3250
GTCTTGTCTCATTGTCACACTACTTTCCCCACTTCAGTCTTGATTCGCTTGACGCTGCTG,5670
AGTTGGCGATCAAAGCACGTGATGGGTTTTCCAAATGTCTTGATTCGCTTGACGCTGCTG,16800
CGTCCTAGTGATTGTCACTCAACTTCCATGAGGAAGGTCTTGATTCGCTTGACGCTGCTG,4350

# Sample 4 — method: DHFR PCA, deep sequencing; matrix: yeast; with: (+)-ABA 17 µM; relative to: wild-type fitted maximum; reading: higher = stronger binding
# Target: ABI1, truncated, D143A, DHFR fusion (Arabidopsis thaliana)
# Notes: methotrexate growth selection, single substitutions
# Starting sequence: PYL1, truncated, DHFR fusion (Arabidopsis thaliana); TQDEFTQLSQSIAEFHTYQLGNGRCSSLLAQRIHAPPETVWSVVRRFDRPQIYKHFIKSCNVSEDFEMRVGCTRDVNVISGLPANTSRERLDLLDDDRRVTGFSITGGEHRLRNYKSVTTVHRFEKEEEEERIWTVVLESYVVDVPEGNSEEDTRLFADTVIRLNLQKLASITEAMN; partner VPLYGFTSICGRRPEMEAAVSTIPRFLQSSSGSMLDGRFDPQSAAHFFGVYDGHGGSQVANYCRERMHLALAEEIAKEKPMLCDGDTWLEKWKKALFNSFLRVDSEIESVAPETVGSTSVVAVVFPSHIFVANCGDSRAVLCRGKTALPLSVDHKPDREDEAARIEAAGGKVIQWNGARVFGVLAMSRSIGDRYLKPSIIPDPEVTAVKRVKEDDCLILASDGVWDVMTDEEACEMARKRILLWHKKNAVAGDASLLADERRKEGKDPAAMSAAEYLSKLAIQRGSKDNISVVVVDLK
Substitution,relative binding score
R111L,45.9%
I57H,-44.4%
R111T,-2.71%
S87D,8.9%
Q19M,70.4%
L28V,79.2%
D97P,39.9%
R24D,34.7%
N149S,77.4%
I133Q,94.5%
L169V,2.56%
R88I,95.3%
I105M,29.8%
A35I,9.19%
L8P,5.73%
L82Q,18.6%
G107I,1.78%
L20E,86.5%
S27G,86.9%
P146N,13%
N61V,90.5%

# For quick reference, copied from above (sample 4):
Substitution,relative binding score
R111T,-2.71%
S87D,8.9%
Q19M,70.4%
L28V,79.2%
D97P,39.9%
R24D,34.7%
N149S,77.4%
I133Q,94.5%
L169V,2.56%
R88I,95.3%
I105M,29.8%
A35I,9.19%
L8P,5.73%
L82Q,18.6%
